Results from different studies.
Each numbered part is a random draw from the data of one study; scales do not carry over between parts. Changes are numbered by the printed parent chain.

Sample 1
Target: Histone acetyltransferase KAT6A, winged helix 2, GST fusion (KAT6A, Homo sapiens, UniProt Q92794, residues 85-181)
Technique: protein binding microarray
Molecule type: double-stranded DNA, one strand shown
Medium: in vitro
Concentration: not given
Notes: 8-mer, flanks averaged, mean of 2 arrays, mostly near background
Baseline: not given
Reading: higher = stronger binding
Target sequence (chain): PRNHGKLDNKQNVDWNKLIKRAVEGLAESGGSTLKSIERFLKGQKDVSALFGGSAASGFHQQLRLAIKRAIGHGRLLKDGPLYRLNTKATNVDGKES
| Oligonucleotide | E-score |
| --- | --- |
| GTAGAGTA | -0.00932 |
| CGACATCC | 0.0298 |
| GAGGAACC | 0.12 |
| ACAAAAAA | 0.0886 |
| GATTCGTA | 0.175 |
| AATACCAC | -0.176 |
| CTAGCCTA | -0.0895 |
| CAATCAAA | 0.0603 |
| GAGGTCCC | 0.0228 |
| AGCCCAGA | 0.0804 |
| TGATGAAA | -0.0272 |
| CTCCTACA | -0.169 |
| AATAGCTC | -0.308 |
| ACCAAGTC | -0.0504 |
| CCTCAGCG | -0.0281 |
| ATTTCTCG | 0.182 |
| GTGGGCCA | 0.167 |

Sample 2
Target: RNA binding protein fox-1 homolog 2, RRM domain, GST-SBP tag (RBFOX2, Homo sapiens, UniProt O43251-10, residues 100-194)
Technique: RNA Bind-n-Seq
Molecule type: RNA
Medium: in vitro
Concentration: 365 nM
Notes: natural RNA segment, single round, ends assumed
Baseline: no-protein control
Reading: higher = stronger binding
Residues (chain): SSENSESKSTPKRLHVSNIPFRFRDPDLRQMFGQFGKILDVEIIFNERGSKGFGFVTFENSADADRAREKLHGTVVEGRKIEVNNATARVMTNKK
| Oligonucleotide | RBNS enrichment (R) |
| --- | --- |
| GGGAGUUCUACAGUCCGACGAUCUGAGCCCGUUACCGCGUGACUCCCACCAUCCAGCUCGCGCUCCUCGUGGAUUCAGCCAUGCAUGGACUGGGGUGUUCCCUGGCCCAUGGUCACCUGUGCCCCUCGUGUCUUGGAAUUCUCGGGUGCCAA | 0.189 |
| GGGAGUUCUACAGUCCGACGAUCCUGGGGUCCCCCAUCCCCAUCCUCCAGCUUCUGGUACUCUCCUAGAGACAGAAGCAGGCUGGAGGUAAGGCCUUUGAGCCCACAAAGCCUUAUCAAGUGUCUUCCAUCAUUGGAAUUCUCGGGUGCCAA | 0.263 |
| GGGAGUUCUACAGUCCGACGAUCCUCUGAUUUUAAAGUGGUGCAUUUGAUUCCAGCCUUGGUAAUGGAGAGUUUGCAAACACACAGCGGCCCACAGCUUCACGUGGUGGUGUGCAGUGUGAGGCAGCUCCUUGUGGAAUUCUCGGGUGCCAA | 0.765 |
| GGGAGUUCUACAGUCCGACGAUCCAAAUAGGCCUAUGAUUUAGCUGGCAGGCCAGGUUUUCUCAAGAGCAAAAUCACCCUCUGGCCCCUUGGCAGGUAAGGCCUCCCGGUCAGCAUUAUCCUGCCAGACCUCGUGGAAUUCUCGGGUGCCAA | 0.335 |
| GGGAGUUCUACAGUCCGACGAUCAUUAUAAAAAGGAAAGGGUUAAUAUAUUUUUGGACUCUGUAGGACAAAAGAGAACUGGUUAACCUUGAAGUGACUGUUGUACAGUGGCUGUGCACGUGCUUCAGACUCAUUGGAAUUCUCGGGUGCCAA | 1.33 |
| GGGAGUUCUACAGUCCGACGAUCUGCCUCUCUGUGGCCGUGGGUUCACGUGGCCUCUGCGGUGAGUCUCCAAGUUUCUGCCUAGGCGCCUGUGCGUUUCCUUUCUGUGACGGGAUUAGCUUAGACAUCCUUGCUGGAAUUCUCGGGUGCCAA | 0.254 |
| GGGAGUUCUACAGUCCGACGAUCAAUUCAUGAGAGACUAAAUGUGAGGGAGAGGUGGAUUUAAAGAGGCCAGACCUUAACCAAAGAUGCUGAGAUACAGCAUUCUGUCCCCCCUGCCCUAGAAACUCCAUAAAUGGAAUUCUCGGGUGCCAA | 0.4 |
| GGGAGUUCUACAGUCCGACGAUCCCAUGAGGUUGAGGUUACCCUGGCUUAUGGAGCGACAGCCUGUCUCAGAGAAACAAGAGCACAAGUAAAUGAACACAAAUCCUUCCUUAGGACCACUGCACCACAGGCCUUGGAAUUCUCGGGUGCCAA | 0.415 |
| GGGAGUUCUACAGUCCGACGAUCCUUUAAGUCAGUUGGUUUUUAUUAGCUGCUUGGUAUGCAGUAACUUGGGUGGAGGCAAAACACUAAUAAAAGGGCUAAAAAGGAAAAUGAUGCUUUUCUUCUAUAUUCUUUGGAAUUCUCGGGUGCCAA | 0.612 |
| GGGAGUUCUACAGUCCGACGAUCCUGUCAGCGUUUGGCAUUUAAUCUUUUUGCCAUUUUAAUUUGCCUACUUACAUUGUGUUCAUAUAUUUUGAAAAGACUUCUCUACUUUACCGUGGUCCUCCGUUGUGAGUUGGAAUUCUCGGGUGCCAA | 0.423 |
| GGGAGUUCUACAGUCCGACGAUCAUAUGUACUUGUUUGCUAUGACUACAUUUUGAGGUUUUGUAAAACUGUUAUUUUUUUUUUUUUCACAAUGUGAAACUGAAGGUCAAUAAAUUAUUAGAGAUUUUCUCUUCUGGAAUUCUCGGGUGCCAA | 1.12 |
| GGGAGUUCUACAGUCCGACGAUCACCAGUUAACAGGUUAUGAUGAGCUGCUCCACGUCUACAGUCCAGUGCGUGGGAAGACAUGCCCCAGGCCCAGCCCUGACCACAUGUGUUGCUAAUUCCUGUCUGGUUCCUGGAAUUCUCGGGUGCCAA | 0.343 |

Sample 3
Target: UBE2L3 UBC core domain (UniProt P68036)
Sequence of UniProt P68036 (whole entry, looked up): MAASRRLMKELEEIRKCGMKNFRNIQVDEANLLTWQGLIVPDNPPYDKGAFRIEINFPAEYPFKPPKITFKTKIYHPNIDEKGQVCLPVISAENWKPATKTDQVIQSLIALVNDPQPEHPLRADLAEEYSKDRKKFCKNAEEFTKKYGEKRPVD
Technique: yeast two-hybrid
Medium: yeast
Notes: mostly zero background
Baseline: not given
Reading: higher = stronger interaction
B1: TRIM47 RING domain (UniProt Q96LD4); chain MDGSGPFSCPICLEPLREPVTLPCGHNFCLACLGALWPHRGASGAGGPGGAARCPLCQEPFPDGLQLR
B2: TRIM74 RING domain (UniProt Q86UV6); chain SLLELEDWLQCPICLEVFKESLMLQCGHSYCKGCLVSLSYHLDTKVRCPMCWQVVDGSSSLP
B3: RNF17 RING domain (UniProt Q9BXT8); chain SQPWGAAEIQCTRCGRRVSRSSGHHCELQCGHAFCELCLLMTEECTTIICPDCEVATAVNTRQR
B4: TRIM28 RING domain (UniProt Q13263); chain GAEALELLEHCGVCRERLRPEREPRLLPCLHSACSACLGPAAPAAANSSGDGGAAGDGTVVDCPVCKQQCFSKDIVE
B5: UBE4B RING domain (UniProt O95155); chain KNARAEIDYSDAPDEFRDPLMDTLMTDPVRLPSGTIMDRSIILRHLLNSPTDPFNRQTLTESMLEPVPELKEQIQAWMREKQNSDH
B6: MDM2 RING domain (UniProt Q00987); chain TQDKEESVESSLPLNAIEPCVICQGRPKNGCIVHGKTGHLMACFTCAKKLKKRNKPCPVCRQPIQMIVLTYFP
| Sequence | lacZ reporter activity |
| --- | --- |
| B1 (TRIM47 RING domain) | 0 |
| B2 (TRIM74 RING domain) | 0 |
| B3 (RNF17 RING domain) | 0 |
| B4 (TRIM28 RING domain) | 0 |
| B5 (UBE4B RING domain) | 0 |
| B6 (MDM2 RING domain) | 0 |
| MEEMEEELKCPVCGSFYREPIILPCSHNLCQACARNILVQTPESESPQSHRAAGSGVSDY (TRIM9 RING domain (UniProt Q9C026)) | 0 |

Sample 4
Target: ABI1, truncated, D143A, DHFR fusion (Arabidopsis thaliana)
Technique: DHFR PCA, deep sequencing
Medium: yeast
Notes: methotrexate growth selection, single substitutions
With: (+)-ABA 4.8 µM
Baseline: wild-type fitted maximum
Reading: higher = stronger binding
Parent: PYL1, truncated, DHFR fusion (Arabidopsis thaliana); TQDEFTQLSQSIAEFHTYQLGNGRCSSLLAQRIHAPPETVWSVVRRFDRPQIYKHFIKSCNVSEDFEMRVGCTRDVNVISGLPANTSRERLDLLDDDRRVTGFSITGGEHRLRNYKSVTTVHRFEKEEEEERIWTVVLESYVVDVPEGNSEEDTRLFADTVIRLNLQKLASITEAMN
| Substitution | relative binding score [%] |
| --- | --- |
| P36N | 58.9 |
| N114H | 39.4 |
| R123C | 58.4 |
| V161M | 40.3 |
| V118D | 0.315 |
| R88F | 65.8 |
| E131Q | 80.3 |
| L112A | -10.4 |
| D95N | 41.2 |

Sample 5
Target: RING finger protein unkempt homolog, zinc fingers 1-6, GST-SBP tag (UNK, Homo sapiens, UniProt Q9C0B0, residues 30-357)
Technique: RNA Bind-n-Seq
Molecule type: RNA
Medium: in vitro
Concentration: not given
Notes: RNA with constant flanks, ends assumed
Baseline: input RNA pool
Reading: higher = stronger binding
Target sequence (chain): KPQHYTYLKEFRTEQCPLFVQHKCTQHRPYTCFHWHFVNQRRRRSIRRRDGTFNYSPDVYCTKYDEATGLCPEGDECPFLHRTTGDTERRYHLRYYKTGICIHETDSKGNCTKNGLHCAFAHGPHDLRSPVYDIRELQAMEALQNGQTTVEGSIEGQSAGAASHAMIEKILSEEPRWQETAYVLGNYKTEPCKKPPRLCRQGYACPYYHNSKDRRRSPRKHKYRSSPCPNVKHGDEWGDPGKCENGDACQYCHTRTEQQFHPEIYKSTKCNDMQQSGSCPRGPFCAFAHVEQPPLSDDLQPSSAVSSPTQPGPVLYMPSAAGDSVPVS
| Oligonucleotide | bound/input enrichment [ratio] |
| --- | --- |
| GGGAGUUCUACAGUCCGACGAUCCACAGAGGAGACCUCCUGUUCCUCACAAAUUUCCGGGAAGACCCAAUCAGAGCUGGUGAAACCGUUGUUUUUAAAGUUGAAGGACGAGACAUUCCAAUAGUUCACAGAGUAAUCAAAGUUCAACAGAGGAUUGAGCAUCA | 1.24 |
| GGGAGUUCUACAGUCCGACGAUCAAGAAAAUCAGUACUCCUGUUGAUGUCAAUAACCGUGAGAUGAUGUUGAGCAUCAUCAACCGCUCUAUUACUACAAAAGUCAUCAGUCGGUGGUCCUCCUUGGCAUGCAACAUUGCACUGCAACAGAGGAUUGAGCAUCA | 0.091 |
| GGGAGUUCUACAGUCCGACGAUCCAUUAAUUUCAACACAUGGGAACACAUGUACAGAAGAUUUUUUUUUUUUUUUUUUUUUUUUUCCGCUACUCGAGAACUUUUCAUAGAUGAACUUUUUAACAAAUGUUUUCAUUUACAGGACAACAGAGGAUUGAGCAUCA | 3.25 |
| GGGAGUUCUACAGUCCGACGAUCAAGUCCUCAUUGACAAUUCAGUUUGUUGAAGGCCAAUUUGUUGAUUCCUACGAUCCAACCACCGAGAACACGUUCACCAAGUUGAUCACGGUAAAUGGUCAAGAGUAUCAUCUUCAGCUUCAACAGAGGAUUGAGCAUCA | 0.0691 |
| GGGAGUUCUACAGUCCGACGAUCGCUAAGAUUGGGCUUAUUCAGUUUUGCUUAUCUGCUCCUAAAACAGAUAUGGAUAAUCAAACCGCCGUAUCUGACUAUGCCCAGAUGGAUCGAGUGCUUCGAGAGGAGAGAGCCUAUAUUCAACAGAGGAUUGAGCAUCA | 0.18 |

A few entries again (sample 5):
| Oligonucleotide | bound/input enrichment [ratio] |
| --- | --- |
| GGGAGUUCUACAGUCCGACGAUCCACAGAGGAGACCUCCUGUUCCUCACAAAUUUCCGGGAAGACCCAAUCAGAGCUGGUGAAACCGUUGUUUUUAAAGUUGAAGGACGAGACAUUCCAAUAGUUCACAGAGUAAUCAAAGUUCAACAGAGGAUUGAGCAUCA | 1.24 |
| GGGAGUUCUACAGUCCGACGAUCAAGAAAAUCAGUACUCCUGUUGAUGUCAAUAACCGUGAGAUGAUGUUGAGCAUCAUCAACCGCUCUAUUACUACAAAAGUCAUCAGUCGGUGGUCCUCCUUGGCAUGCAACAUUGCACUGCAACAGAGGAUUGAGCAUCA | 0.091 |
| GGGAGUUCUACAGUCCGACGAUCGCUAAGAUUGGGCUUAUUCAGUUUUGCUUAUCUGCUCCUAAAACAGAUAUGGAUAAUCAAACCGCCGUAUCUGACUAUGCCCAGAUGGAUCGAGUGCUUCGAGAGGAGAGAGCCUAUAUUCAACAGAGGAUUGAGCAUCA | 0.18 |
| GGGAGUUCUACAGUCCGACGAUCCAUUAAUUUCAACACAUGGGAACACAUGUACAGAAGAUUUUUUUUUUUUUUUUUUUUUUUUUCCGCUACUCGAGAACUUUUCAUAGAUGAACUUUUUAACAAAUGUUUUCAUUUACAGGACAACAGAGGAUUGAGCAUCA | 3.25 |
